Published values of several laboratories.
Numbers after ± are the reported error.
Cell line: A549

| Structure (SMILES) | assay | setting | how to read | quantity | result |
| --- | --- | --- | --- | --- | --- |
| Nc1ccc[n+]([Pt-2]([Cl])([Cl])[n+]2cccc(N)c2Cl)c1Cl | cell viability, MTT | 24 h |  | IC25 | 34.3 µM |
| N#C[Se]CCCCCCOc1ccc2c(-c3ccccc3)cc(=O)oc2c1 | cell growth or viability, SRB |  |  | GI50 | 22 µM |
| COc1cc(/C=C/C(=O)CC(C)=O)ccc1O | PI staining flow cytometry | 50 µM, 48 h |  | cells in G2/M phase | 25% |
| COc1c(C)c(OS(=O)(=O)c2ccccc2)c(C)c(O)c1C(=O)/C=C/c1ccccc1 |  |  | relative to: CL over A549 | selectivity index | 1.1 |
| O=C(/C=C/c1ccccc1)Nc1cc(-c2ccnc(N3CCC(CO)CC3)c2)ccn1 | cell growth or viability, MTT | 5 µM |  | inhibition | 69.2% |
| C[C@H]1O[C@@H]2C3=C(O[C@]2(C)[C@@]1(O)C=O)C(=O)c1c(O)cccc1C3=O | cell growth or viability, MTT | 48 h |  | EC50 | 10.6 µM |
| CCCC[N+]1=c2cc3c4cc2[O][Mn-2]1(=[C]=O)(=[C]=O)(=[C]=O)[n+]1ccc(cc1)C(=O)NCCNC(=O)c1cc[n+](cc1)[Mn-2](=[C]=O)(=[C]=O)(=[C]=O)([O]3)[N+]=4CCCC | MTT | 50 µM, 48 h, photolysed compound |  | viability reduction | 93% |
| CC(C)(COP(=O)(O)OP(=O)(O)OC[C@H]1O[C@@H](n2cnc3c(N)ncnc32)[C@H](O)[C@@H]1OP(=O)(O)O)[C@@H](O)C(=O)NCCC(=O)NCCSCCC(=O)N[C@@H](CO)C(=O)NCC(=O)N[C@@H](CCCNC(=N)N)C(=O)NCC(=O)N[C@@H](CCCCN)C(=O)NCCCC[C@H](NC(=O)CC[C@@H]1NC(=O)[C@@H](CCCNC(=N)N)NC(=O)[C@H](CCCNC(=N)N)NC(=O)[C@@H](CCCNC(=N)N)NC(=O)[C@H](CCCNC(=N)N)NC(=O)[C@H](Cc2csc3ccccc23)NC(=O)[C@@H](Cc2ccccc2)NC(=O)[C@H](Cc2ccccc2)NC1=O)C(N)=O | N-cadherin expression reduction, Western blot | 2 days |  | lowest effective concentration | 0.1 µM |
| CC(=O)O[C@H]1C[C@H](O[C@H]2[C@@H](O)C[C@H](O[C@H]3[C@@H](O)C[C@H](O[C@H]4CC[C@@]5(C)[C@H](CC[C@@H]6[C@@H]5CC[C@]5(C)[C@@H](C7=CC(=O)OC7)CC[C@]65O)C4)O[C@@H]3C)O[C@@H]2C)O[C@H](C)[C@H]1O[C@@H]1O[C@H](CO)[C@@H](O[C@@H]2O[C@H](CO)[C@@H](O)[C@H](O)[C@H]2O)[C@H](O)[C@H]1O | cell growth or viability, MTT | 5 µM, 24 h |  | inhibition | 73.5% |
| O=C(NCc1cc(F)cc(F)c1)[C@@]1(O)CCN(c2ccc3[nH]ccc3c2)C1=O | colony formation, soft agar clonogenic | concentration not given |  | efficacy | 44% |
| COc1c(C)c(OS(=O)(=O)c2ccccc2)c(C)c2c1C(=O)CC(c1ccccc1)O2 (stereo not drawn) |  |  | relative to: CL over A549 | selectivity index | > 1.32 |
| COc1cc(/C=C/c2cc(C)n[nH]2)ccc1O | PI staining flow cytometry | 50 µM, 48 h |  | cells in pre-G1 phase | 16.5% |
| O=[C]=[Mn-2]12(=[C]=O)(=[C]=O)[O]c3cc4c(cc3=[N+]1CCc1ccccc1)[O][Mn-2](=[C]=O)(=[C]=O)(=[C]=O)([N+]=4CCc1ccccc1)[n+]1ccc(cc1)C(=O)Nc1ccccc1NC(=O)c1cc[n+]2cc1 | MTT | 50 µM, 48 h, photolysed compound |  | viability reduction | 75% |
| C1=[N+]2CCCC[N+]3=Cc4ccc5[n]4[Au-]23[n]2c1ccc2-c1nc2ccccc2nc1-5.F[P-](F)(F)(F)(F)F | NCI60 five-dose screen |  |  | TGI | 4 -log M |
| COC(=O)c1cc(NC2=NC(=O)C(=Cc3ccc(N(C)C)cc3)S2)ccc1OC(C)=O | measured: TNFRSF10C | 2.93 µM, 24 h | relative to: DMSO | mRNA level | 802 fold change |
| Cc1ccc(C(=O)/C=C/c2ccccc2)s1 | SRB | 10 µM |  | growth inhibition | < 0% |
| NC1=C(Cl)C(=O)c2ccccc2C1=O | MTT |  | relative to: IC50 MRC-5 over IC50 A549 | selectivity index | 1.13 |
| Cc1cc(/C=C/c2ccc(O)c(O)c2)[nH]n1 | PI staining flow cytometry | 50 µM, 48 h |  | cells in G1 phase | 48.3% |
| CCNc1cc2c(cc1C)C1(c3cc(C)c(NCC)cc3O2)c2ccccc2C(=O)N1N=Cc1c[c-]c(-c2ccccn2)cc1.Cc1c(C)c(-c2ccc(-c3ccccc3)cc2)[c-](C)c1C.[Cl-].[Ir+3] | annexin V/PI flow cytometry | 1.0×IC50, 24 h |  | early apoptotic cells | 6.57 ± 0.5% |
| N#CSCCCCCCOc1ccc2c(-c3ccccc3)cc(=O)oc2c1 | cell growth or viability, SRB |  |  | GI50 | 24 µM |
| O=C1C(Br)=C(Br)C(=O)c2ccccc21 | MTT |  | relative to: IC50 MRC-5 over IC50 A549 | selectivity index | 1.43 |
| CCCC[N+]1=c2cc3c4cc2[O][Mn-2]1(=[C]=O)(=[C]=O)(=[C]=O)[n+]1ccc(cc1)C(=O)Oc1ccccc1OC(=O)c1cc[n+](cc1)[Mn-2](=[C]=O)(=[C]=O)(=[C]=O)([O]3)[N+]=4CCCC | MTT | 50 µM, 48 h, photolysed compound |  | viability reduction | 72% |
| COc1ccccc1[C@H](Cn1c(=O)n(C(C)(C)C(N)=O)c(=O)c2c(C)c(-c3ncco3)sc21)OC1CCOCC1 | cell proliferation | 168 h | relative to: vehicle | EC50 | 0.07 µM |
| CCN(C(=O)c1cc(F)ccc1Oc1nncnc1N1CCC2(C1)CN([C@H](CCCN(C)CCOC)C(C)C)C2)C(C)C | cell growth or viability | 7 days |  | GI50 | > 10 µM |

Some of these lines once more:
| Structure (SMILES) | assay | setting | how to read | quantity | result |
| --- | --- | --- | --- | --- | --- |
| COc1cc(/C=C/c2cc(C)n[nH]2)ccc1O | PI staining flow cytometry | 50 µM, 48 h |  | cells in pre-G1 phase | 16.5% |
